Results from different studies.
Numbered parts are unrelated; each lists some results of a single study.

Sample 1 — technique: protein binding microarray; molecule type: double-stranded DNA, one strand shown; matrix: in vitro; concentration: not given; reference: not given; direction: higher = stronger binding
Target: Histone acetyltransferase KAT6A, winged helix 1, GST fusion (KAT6A, Homo sapiens, UniProt Q92794, residues 1-85)
Setting: 8-mer, flanks averaged, mean of 2 arrays, mostly near background
Construct (chain): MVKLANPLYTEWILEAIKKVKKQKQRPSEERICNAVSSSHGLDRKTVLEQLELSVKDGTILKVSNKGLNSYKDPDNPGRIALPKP
| Strand | E-score |
| --- | --- |
| AGGCTGTC | -0.00051 |
| AATCGGTG | -0.0526 |
| GGACGCAC | 0.204 |
| ACGACAAA | -0.192 |
| ACTAATCA | -0.0974 |
| AGCTGCCT | -0.0504 |
| AAAGTACT | -0.00571 |
| AACCGCTT | 0.16 |
| GCGCGGAA | 0.392 |
| ATGGGCTC | -0.113 |
| CAACCAAC | -0.137 |
| GATCCTAA | -0.0729 |
| CACCGGCA | 0.269 |
| TCCCAGGA | -0.105 |
| GCGTTGCC | 0.183 |
| ACCTGATA | -0.0923 |
| ATGCCCCC | -0.0222 |
| GGATCATA | 0.0345 |
| ACCCCCTA | -0.248 |
| GCAAAAGA | 0.0196 |
| CCGGAGCG | 0.352 |
| GATTATAC | -0.0253 |
| GATTGAGA | -0.166 |
| TACGGCCA | 0.227 |
| CGAGTCGA | -0.109 |

Sample 2 — technique: universal PBM; molecule type: double-stranded DNA, one strand shown; matrix: in vitro; concentration: 600 nM; direction: higher = stronger binding
Target: Sal-like protein 4, full length isoform A (SALL4, Homo sapiens, UniProt Q9UJQ4, residues 1-1053)
UniProt Q9UJQ4, sequence (whole entry, looked up): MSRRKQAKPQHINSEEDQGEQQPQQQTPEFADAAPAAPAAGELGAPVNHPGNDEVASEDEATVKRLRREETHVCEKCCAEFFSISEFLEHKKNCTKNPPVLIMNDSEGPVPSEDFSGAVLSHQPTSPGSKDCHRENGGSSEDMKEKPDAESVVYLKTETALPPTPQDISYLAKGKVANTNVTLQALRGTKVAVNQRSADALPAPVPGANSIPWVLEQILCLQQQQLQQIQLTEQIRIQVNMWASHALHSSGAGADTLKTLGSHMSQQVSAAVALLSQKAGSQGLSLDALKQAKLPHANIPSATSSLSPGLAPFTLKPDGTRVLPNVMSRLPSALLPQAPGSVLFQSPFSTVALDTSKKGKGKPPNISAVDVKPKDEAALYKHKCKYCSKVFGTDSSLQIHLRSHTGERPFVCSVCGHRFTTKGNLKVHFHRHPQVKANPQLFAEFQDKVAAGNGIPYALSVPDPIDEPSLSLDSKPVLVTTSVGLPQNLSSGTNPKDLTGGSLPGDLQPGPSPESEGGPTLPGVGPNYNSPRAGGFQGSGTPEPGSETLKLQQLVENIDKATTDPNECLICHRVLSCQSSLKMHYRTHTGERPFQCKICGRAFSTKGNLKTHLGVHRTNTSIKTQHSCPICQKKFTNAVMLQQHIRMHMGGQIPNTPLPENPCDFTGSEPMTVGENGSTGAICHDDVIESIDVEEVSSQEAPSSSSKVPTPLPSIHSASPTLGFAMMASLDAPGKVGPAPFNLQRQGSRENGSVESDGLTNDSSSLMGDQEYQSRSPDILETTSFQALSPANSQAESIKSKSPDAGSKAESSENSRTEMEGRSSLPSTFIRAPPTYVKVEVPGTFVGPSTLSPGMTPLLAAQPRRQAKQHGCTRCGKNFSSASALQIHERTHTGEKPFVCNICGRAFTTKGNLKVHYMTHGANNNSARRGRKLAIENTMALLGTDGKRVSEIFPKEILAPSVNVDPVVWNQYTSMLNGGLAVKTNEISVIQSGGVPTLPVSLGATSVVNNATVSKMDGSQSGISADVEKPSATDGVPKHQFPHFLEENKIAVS
Setting: 8-mer, flanks averaged, mean of replicates
| Strand | E-score |
| --- | --- |
| AACATACG | 0.134 |
| CCACTTCA | -0.0652 |
| CTATTAGC | 0.214 |
| AGTTACTC | 0.13 |
| GCTAAAGC | -0.0836 |
| TGTTAAAA | 0.295 |
| GGAATCAC | 0.0211 |
| AGAGCTCA | -0.176 |
| AGCTACGG | -0.24 |
| CGCTAGGA | -0.168 |
| GTTCTAAA | 0.142 |
| CCCGAATA | 0.119 |
| AAGGTCGT | 0.00494 |
| ACTACTCC | -0.0711 |
| GCGAAAGA | -0.0449 |
| ATCATGAC | 0.102 |
| GCATCTCA | 0.108 |

Sample 3 — technique: RNA Bind-n-Seq; molecule type: RNA; matrix: in vitro; concentration: 365 nM; reference: no-protein control; direction: higher = stronger binding
Target: RNA binding protein fox-1 homolog 2, RRM domain, GST-SBP tag (RBFOX2, Homo sapiens, UniProt O43251-10, residues 100-194)
Setting: natural RNA segment, single round, ends assumed
Shared flanks, not repeated: GGGAGUUCUACAGUCCGACGAUC … UGGAAUUCUCGGGUGCCAA
Target sequence (chain): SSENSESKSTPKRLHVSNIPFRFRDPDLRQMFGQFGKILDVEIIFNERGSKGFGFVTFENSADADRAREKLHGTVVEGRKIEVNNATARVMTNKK
| Strand | RBNS enrichment (R) |
| --- | --- |
| GUUACUGCAGCAUCUGGGCUGCCAGCCACAGGGAAGGGCCAAGCCCCAUGUAGCCCCAGUCAUCCUGCCCAGCCCUGCCUCCUGGCCAUGCCGGGAGGGGUCGGAUCCUC | 0.91 |
| ACACUAAGUUGGUGUACUGCCUCGACCUUUUUUCAGCUCAUCCUGGAACAUAUACAGAGUUGAGAGUUUUAGACAAUCUCUAGGUAGAGGAGACAAGAUGUAGACCCAGA | 0.554 |
| UGAAACCUCUUAUUACAUGCUCUUGUAUGUUUUUAAGCAUAAUAAGCUAACUGGAUUUGGGUAUAUGCCCUUUAAGUUAAAAAUAAUAUGUAUUUCUAAUUUGCAUAUUU | 0.478 |
| GGGAAGACACAGAGACUCGUACCUGCGCUGUUUGUGCCGCCGCUGCCUCUGGGCCCUCCCAGCACACGCAUGGUCUCUUCACCGCUGCCCUCGAGUUCCAUGUCUCUUUC | 0.641 |
| GUCUGCCACACCUGCAGUAACACAGAGCAACAGAUUCCCAGCCCGUGAUGAGAGCCUGUAGCUCGUGACACACUUCUUUGGGUUACUCUGCUACAUUUCUGUAAGAGAGU | 0.387 |
| UUCAUGGUUGAAACUCAACUUAGGGAAAGGGUUCCAAUGUAUUAAGCAAUGGGCUGCUUCUCCCCAAUCCUCCCUAACAAUUCGUUGUGUGGACUUCUCAUCUAAAAGGU | 0.274 |
| CUGGCUUUUUCACUGAACGUAUCAGAAUACAUGGAUGAAUUGGGGUAAAUAAGGUUUUAAUUCAGAUCUAGAAGAAAGUAUUGUACGUUUGAAUGCAGAUUUUUAUCCAC | 0.698 |
| UAAAAAGUAAAAAUUGUAGUUUAAAAAAUCCUUUCCUCUUUCAUACAAAUAAGAAAUGGAAAUUGCUCGUUUAUUGUAUAAGAUAGAAGAUUCGUUUAAAGUGUUUCCCC | 0.598 |
| AGAGCGAGACUCCAUCUACCAGAUCCUUAUGACGCAGCUGAUGCCUGCCUUGGUUCCUACCACUCUGGUGUAGACAGAGGACUUUGUCCAAGUCUCACACUAAACAUGCC | 0.624 |
| CACCAUGUUGGCCAGGCUCGUCUCGAACUCCUGACUUCAGGUGAUCCACCCAUCUCAGCCUCCCAAAGUGCUGGGAUUACAGGCGUGAGCCACCAUGCCCGGCCCAUAAG | 0.213 |
| GAACUCUAGUGCACUUAUCAUUUUGUAGACCAUGUGGAAUUUAAUAAGAUACUUUUCCCCACUCCUUUCUUUGUGUGUAGUGCAGCAACAGUUUGGUCUGCAUUUGUUAG | 0.845 |
| AAACUGGCUCAGAUGUUUAUAAGUCAAGAGGAAAGCGGCACAGAGAACAGCACAGUGAAGAGUGAAAUGGAGAAAACUCUCACGGUGAAGCAGCUGUUGGAACUCCUGGU | 0.638 |

Sample 4 — technique: aptamer microarray, sandwich; molecule type: DNA with 2'F-ANA; matrix: in vitro; concentration: 200 nM; added: Cy3 exosite-II aptamer, 400 nM; direction: higher = stronger binding; strand: GGTTGGTGTGGTTGG
Target: Prothrombin, mature alpha-thrombin (F2, Homo sapiens, UniProt P00734)
Setting: whole 15-mer aptamer, many near background
| Modification | mean fluorescence intensity |
| --- | --- |
| 2'F-ANA at 2 4 5 6 8 9 10 11 12 13 14 15 | 47.1 a.u. |
| 2'F-ANA at 1 3 4 6 8 9 12 13 15 | 261 a.u. |
| 2'F-ANA at 1 4 6 7 8 9 10 11 13 14 | 48.5 a.u. |
| 2'F-ANA at 5 6 7 8 9 10 12 14 15 | 45.8 a.u. |
| 2'F-ANA at 5 6 8 13 | 56.7 a.u. |
| 2'F-ANA at 4 7 9 10 11 13 14 | 59.9 a.u. |
| 2'F-ANA at 1 3 5 7 10 12 14 | 43.9 a.u. |
| 2'F-ANA at 1 2 3 5 6 7 9 11 13 14 | 191 a.u. |
| 2'F-ANA at 1 3 4 7 8 10 11 12 14 15 | 56.9 a.u. |
| 2'F-ANA at 2 3 5 6 7 10 12 15 | 58.1 a.u. |
| 2'F-ANA at 1 3 4 6 7 8 11 12 13 14 15 | 77.6 a.u. |
| 2'F-ANA at 1 3 5 6 11 12 13 15 | 74.6 a.u. |
| 2'F-ANA at 1 4 6 7 9 10 11 14 | 53.2 a.u. |
| 2'F-ANA at 3 4 7 9 10 15 | 280 a.u. |
| 2'F-ANA at 1 2 3 8 10 14 | 51.5 a.u. |
| 2'F-ANA at 2 3 4 8 10 12 13 14 15 | 173 a.u. |

Sample 5 — technique: RNA Bind-n-Seq; molecule type: RNA; matrix: in vitro; concentration: 20 nM; setting: 6-mer, flanks averaged, single round; added: 150 mM LiCl; reference: input library; direction: higher = stronger binding
Target: TAR DNA-binding protein 43, full length, His tag (TARDBP, Homo sapiens, UniProt Q13148, residues 1-414)
| Strand | 6-mer enrichment (R) |
| --- | --- |
| UCAGCC | 0.876 |
| CUUAGG | 0.872 |
| GAGCUA | 0.886 |
| GUCUGG | 1.09 |
| GUCCAU | 0.913 |
| GUAUAA | 0.996 |
| UGAAAC | 0.84 |
| CCGACU | 0.84 |
| AUGGGA | 1.11 |
| CACAAA | 0.859 |
| CCCUAC | 1.01 |
| CUUACC | 0.911 |
| AUUCCU | 0.879 |
| GCGGCC | 1.03 |
| UGUUAU | 1.25 |
| CUUACA | 0.868 |
| GACAGA | 0.871 |
| GCGCGA | 1 |
| GGCGUU | 1.02 |
| CUGAGG | 0.938 |
| CCCACG | 0.972 |
| GGGACU | 1.09 |
| GGUUAG | 1.09 |
| CACCUU | 0.971 |
| AUCAAG | 0.814 |
